# Literature values, collected from citations in different studies.
# Each line is one published result; not all experiments were run side by side.
# Sequence of UniProt P28335 (whole entry, looked up): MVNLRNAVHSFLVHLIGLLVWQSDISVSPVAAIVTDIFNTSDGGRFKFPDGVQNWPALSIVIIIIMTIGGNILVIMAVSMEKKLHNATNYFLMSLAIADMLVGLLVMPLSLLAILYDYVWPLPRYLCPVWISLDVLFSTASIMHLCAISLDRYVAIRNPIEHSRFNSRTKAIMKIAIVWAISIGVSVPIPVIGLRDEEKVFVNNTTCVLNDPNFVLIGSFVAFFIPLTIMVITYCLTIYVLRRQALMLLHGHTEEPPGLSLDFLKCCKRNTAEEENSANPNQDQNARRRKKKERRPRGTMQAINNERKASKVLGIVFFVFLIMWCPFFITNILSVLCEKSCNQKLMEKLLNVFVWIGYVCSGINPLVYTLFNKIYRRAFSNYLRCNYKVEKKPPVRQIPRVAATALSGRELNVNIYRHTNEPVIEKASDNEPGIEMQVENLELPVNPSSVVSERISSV
# Sequence of UniProt P25084 (whole entry, looked up): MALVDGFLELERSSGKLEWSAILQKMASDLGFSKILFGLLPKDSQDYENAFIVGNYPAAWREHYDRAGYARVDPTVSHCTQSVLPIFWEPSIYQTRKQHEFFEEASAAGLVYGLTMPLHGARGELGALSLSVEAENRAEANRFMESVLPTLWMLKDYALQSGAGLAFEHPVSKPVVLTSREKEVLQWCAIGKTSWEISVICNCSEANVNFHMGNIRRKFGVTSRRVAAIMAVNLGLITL
SMILES,tested on,test,system,conditions,endpoint,value
CN1CC[C@]23c4c5ccc(O)c4O[C@H]2[C@H](O)CC[C@@]3(O)[C@H]1C5,,"analgesia, Haffner tail-clip test",mouse,subcutaneous,ED50,1.7 mg/kg
CCn1c(C)c(CC(=O)N[C@@H](Cc2ccccc2)C(=O)N(C)c2ccc(F)cc2)c2ccccc21,HIV-1 capsid hexamer wild type,,,,ΔTm,10.7 °C
CC[C@H](C)[C@H](NC(=O)[C@H](CCCCN)NC(=O)[C@H](CCC(=O)O)NC(=O)[C@@H](NC(=O)[C@H](CCCNC(=N)N)NC(=O)[C@@H](NC(=O)CNC(=O)[C@H](CC(C)C)NC(=O)[C@H](CCCCN)NC(=O)[C@H](CCCNC(=N)N)NC(=O)[C@H](CCC(=O)O)NC(=O)[C@H](CC(C)C)NC(=O)CNC(=O)[C@@H](N)CCCNC(=N)N)C(C)C)[C@@H](C)CC)C(=O)NCC(=O)N[C@@H](CCCNC(=N)N)C(=O)N[C@@H](CCCNC(=N)N)C(=O)N[C@@H](CC(C)C)C(=O)NCC(=O)N[C@@H](CCCNC(=N)N)C(=O)N[C@H](C(=O)N[C@@H](CC(C)C)C(=O)NCC(=O)N[C@@H](CCC(=O)O)C(=O)N[C@@H](Cc1c[nH]c2ccccc12)C(=O)N[C@@H](CCC(=O)O)C(=O)N[C@H](C(=O)N[C@@H](CCC(=O)O)C(=O)O)C(C)C)[C@@H](C)CC,Pseudomonas aeruginosa,,,,MIC,4 µM
CCC(=O)OC1C(=O)C2(C)C(O)CC3OCC3(OC(C)=O)C2C(OC(=O)c2cccc(OC(F)F)c2)C2(O)CC(OC(=O)C(O)C(C=C(C)C)NC(=O)OC(C)(C)C)C(C)=C1C2(C)C (centres unmarked),LCC6-WT,cytotoxicity,,,IC50,0.56 nM
CC[C@H](C)[C@H](NC(=O)[C@H](CCCCN)NC(=O)[C@H](CCC(N)=O)NC(=O)[C@H](C)NC(=O)[C@H](Cc1ccc(O)cc1)NC(=O)[C@H](CCC(=O)O)NC(=O)[C@H](CCCCN)NC(=O)[C@H](C)NC(=O)[C@H](CC(C)C)NC(=O)[C@H](CCCNC(=N)N)NC(=O)[C@H](CC(C)C)NC(=O)CNC(=O)[C@H](CCCCN)NC(=O)[C@H](C)NC(=O)[C@H](CCCNC(=N)N)NC(=O)[C@H](CC(C)C)NC(=O)[C@H](CCCCN)NC(=O)[C@H](CCC(N)=O)NC(=O)[C@H](C)NC(=O)[C@H](CC(C)C)NC(=O)[C@H](CCCCN)NC(=O)[C@H](CO)NC(=O)[C@H](CCCCN)NC(=O)[C@@H](N)Cc1c[nH]c2ccccc12)C(=O)N[C@@H](CC(C)C)C(=O)N[C@@H](CC(N)=O)C(=O)O,Escherichia coli,,,,MIC,2 µM
CC(=O)OC12COC1CC(O)C1(C)C(=O)C(OC(=O)C3CC3)C3=C(C)C(OC(=O)C(O)C(C=C(C)C)NC(=O)OC(C)(C)C)CC(O)(C(OC(=O)c4cccc(OC(F)F)c4)C21)C3(C)C (centres unmarked),LCC6-WT,cytotoxicity,,,IC50,0.45 nM
CN1CCN(S(=O)(=O)c2ccc(-c3ccc4ncnc(Nc5ccccc5)c4c3)cc2)CC1,Trypanosoma brucei,parasite growth,,,EC50,1500 nM
CC(C)[C@H](NC(=O)[C@H](CCCNC(=N)N)NC(=O)[C@H](Cc1ccccc1)NC(=O)[C@H](CS)NC(=O)[C@H](Cc1c[nH]c2ccccc12)NC(=O)[C@@H](N)CCCCN)C(=O)N[C@@H](CS)C(=O)N[C@@H](Cc1c[nH]c2ccccc12)C(=O)N[C@@H](CCCNC(=N)N)C(=O)N[C@@H](Cc1c[nH]c2ccccc12)C(=O)N[C@@H](Cc1ccccc1)C(=O)N[C@@H](CS)C(=O)N[C@@H](Cc1c[nH]c2ccccc12)C(=O)N[C@@H](CCCNC(=N)N)C(=O)N[C@@H](CCCCN)C(=O)N[C@@H](CS)C(=O)N[C@@H](CCCNC(=N)N)C(=O)O,Pseudomonas aeruginosa,,,,MIC,32 µM
CCOC(=O)[C@@]12C[C@@H]1[C@@H](n1cnc3c(NC(C4CC4)C4CC4)nc(Cl)nc31)[C@H](O)[C@@H]2O,"5-hydroxytryptamine receptor 2C (HTR2C, Homo sapiens, UniProt P28335)",binding,,together with: [3H]mesulergine,Ki,30 nM
Cc1c(CC(=O)N[C@@H](Cc2ccccc2)C(=O)N(C)c2ccc(Cl)cc2)c2ccccc2n1C(C)C,HIV-1 capsid hexamer wild type,,,,ΔTm,8.5 °C
CCCCCCC#Cc1cncc(-c2nnc(SCc3ccc([N+](=O)[O-])o3)n2C)c1,Mycobacterium tuberculosis,MABA,Erdman wild type,,IC50,600 nM
Cc1ccc(NC2CNC2)cc1C(=O)N[C@H](C)c1cccc(-c2ccc(CN3CCCC3)s2)c1,SARS-CoV-2,viral replication,A549,,EC50,1200 nM
Cc1ccncc1CC(=O)Nc1cccc2c1CNCC2,main protease (Mpro),,,20 µM,inhibition,-1.08%
COC1C2(O)C(=O)N3C=CC(C)(C)c4[nH]c5ccccc5c4C=C3C(=O)N2C23C(C)C(C)(C)N2c2ccccc2C13O (centres unmarked),"GABA-gated chloride channel, Bombyx mori",,larval neurons,blocked by fipronil,concentration for inward current,≥ 300 nM
O=C(CCCc1ccccc1)NC1CCOC1=O (centres unmarked),"Transcriptional activator protein LasR (lasR, Pseudomonas aeruginosa, UniProt P25084)","lasI-lacZ reporter, inhibitor",,5 µM,inhibition,20%
N#Cc1ccnc(N2C(=O)CC[C@H]2C(=O)N(c2cncc(F)c2)[C@H](C(=O)NC2CC(F)(F)C2)c2ccccc2Cl)c1,,,pretreated mIDH1 cholangiocarcinoma patients,"dose not given, trial","rate, progression-free survival, 6 month",40%
NC(=O)c1cccc(NC(=O)C(NC(=O)c2ccc(Oc3ccccc3)cc2)c2ccc(OCc3ccccc3)cc2)c1 (centres unmarked),dengue virus 2,viral replication,New Guinea C,,EC50,660 nM
